Measured values of several laboratories.
Each line is one published result; not all experiments were run side by side.
Organism: Staphylococcus aureus

COC(=O)c1cc(-c2cccc(NC(=O)Nc3cccc(Cl)c3Cl)c2)on1 — MIC (ATCC 29213, CAMHB; 16 to 18 h): 8 µg/mL
CC[C@H](C)[C@H](NC(=O)[C@H](CC(C)C)NC(=O)[C@H](CCCNC(=N)N)NC(=O)[C@@H](N)CCCNC(=N)N)C(=O)N[C@@H](CCCNC(=N)N)C(=O)N[C@@H](CCCCN)C(=O)N[C@@H](CC(C)C)C(=O)N[C@@H](CCCCN)C(=O)NCC(=O)N[C@@H](CC(C)C)C(=O)N[C@@H](CCCCN)C(=O)N[C@@H](CCCCN)C(=O)N[C@@H](Cc1ccc(O)cc1)C(=O)N[C@@H](CC(C)C)C(=O)N[C@@H](Cc1ccc(O)cc1)C(=O)N[C@@H](Cc1ccccc1)C(=O)N[C@@H](CCCCN)C(=O)N[C@@H](CC(C)C)C(=O)N[C@@H](CCC(N)=O)C(=O)N[C@@H](CC(C)C)C(=O)N[C@@H](CC(C)C)C(=O)N[C@@H](CCCCN)C(=O)N[C@@H](CCCCN)C(N)=O — MIC (KCTC 1621, Mueller-Hinton broth; together with: 1 mM MgCl2): 8 µM
COc1ccc2ccc(O)c(/C=N/[C@H]3CCCC[C@H]3/N=C/c3c(O)cccc3F)c2c1 — MIC (bacterial growth, broth microdilution; vancomycin-intermediate): > 40 µM
CC[C@H](C)[C@H](NC(=O)[C@H](CO)NC(=O)CNC(=O)[C@H](CCCCN)NC(=O)[C@@H](NC(=O)[C@H](CC(N)=O)NC(=O)[C@H](Cc1ccccc1)NC(=O)[C@H](CC(N)=O)NC(=O)[C@@H](NC(=O)[C@H](CCCNC(=N)N)NC(=O)[C@@H]1CCCN1C(=O)[C@H](CCCNC(=N)N)NC(=O)[C@@H](NC(=O)[C@H](CCCNC(=N)N)NC(=O)[C@H](CCCNC(=N)N)NC(=O)[C@@H](NC(=O)[C@H](CCCNC(=N)N)NC(=O)[C@H](CO)NC(=O)[C@H](CC(C)C)NC(=O)[C@H](Cc1ccccc1)NC(=O)[C@H](CCCNC(=N)N)NC(=O)CNC(=O)[C@H](Cc1ccccc1)NC(=O)[C@H](CCCNC(=N)N)NC(=O)CNC(=O)[C@H](CCCNC(=N)N)NC(=O)[C@H](CCC(N)=O)NC(=O)[C@@H](NC(=O)[C@@H](N)CC(C)C)C(C)C)[C@@H](C)CC)[C@@H](C)CC)[C@@H](C)CC)[C@@H](C)CC)C(=O)O — MIC (broth microdilution; ATCC 25923, Mueller-Hinton broth; 16 to 20 h, 37 °C): 0.311 µM
CCCCCCC#Cc1cncc(-c2nnc(SCc3cc(C(F)(F)F)cc(C(F)(F)F)c3)n2CCCN)c1 — MIC (broth microdilution; Mu50 MRSA VISA; 18 to 24 h, 37 °C): 4 µg/mL
CC[C@H](C)[C@H](NC(=O)[C@H](Cc1c[nH]c2ccccc12)NC(=O)[C@@H](NC(=O)[C@H](Cc1c[nH]c2ccccc12)NC(=O)[C@@H]1CCCN1C(=O)[C@@H](NC(=O)[C@H](C)N)[C@@H](C)CC)[C@@H](C)CC)C(=O)N[C@@H](Cc1c[nH]c2ccccc12)C(=O)N[C@@H](CCCNC(=N)N)C(=O)N[C@@H](CC(C)C)C(=O)N[C@@H](CC(C)C)C(=O)N[C@@H](CCCNC(=N)N)C(=O)N[C@@H](CCCCN)C(=O)NCC(N)=O — MIC (broth microdilution; ATCC 35556; 18 h, 37 °C): 3.75 µM
CC[C@H](C)[C@H](NC(=O)[C@H](CC(C)C)NC(=O)[C@H](CCCNC(=N)N)NC(=O)[C@@H](N)CCCNC(=N)N)C(=O)N[C@@H](CC(C)C)C(=O)N[C@H](C(=O)N[C@@H](CCCCN)C(=O)N[C@H](C(=O)NCC(=O)N1CCC[C@H]1C(=O)N[C@H](C(=O)N[C@H](C(=O)N[C@@H](Cc1ccc(O)cc1)C(=O)N[C@@H](CCCCN)C(=O)N[C@@H](Cc1ccc(O)cc1)C(=O)N[C@@H](Cc1ccccc1)C(=O)N[C@@H](CCCCN)C(=O)N[C@@H](CCCCN)C(=O)N[C@@H](CCC(N)=O)C(=O)N[C@@H](CC(C)C)C(=O)N[C@@H](CCCCN)C(=O)N[C@@H](CCCCN)C(=O)N[C@@H](CC(C)C)C(N)=O)[C@@H](C)CC)[C@@H](C)CC)[C@@H](C)O)[C@@H](C)O — MIC (broth microdilution; KCTC 1621, Mueller-Hinton broth; 24 h, 37 °C): 16 µM
Cc1ccc2[nH]c3c(c2c1)CCCC3NCCc1ccc(Br)cc1 (stereo not shown) — MIC (broth microdilution; HG001 daptomycin-resistant): 4 µg/mL
C/C(=C\C(=O)OCCCCCCCC(=O)Nc1c2sscc-2[nH]c1=O)[C@@H](O)[C@@H]1OC[C@H](C/C=C/[C@@H](C)[C@H](C)O)[C@@H](O)[C@H]1O — MIC (MRSA COL, IleRS V588F/V631F mutant): 0.08 µM
CCCCCCCCCC(=O)N[C@@H](Cc1c[nH]c2ccccc12)C(=O)N[C@H](CC(N)=O)C(=O)N[C@@H](CC(=O)O)C(=O)N[C@@H]1C(=O)NCC(=O)N[C@@H](CCCN)C(=O)N[C@@H](CC(=O)O)C(=O)N[C@H](C)C(=O)N[C@@H](CC(=O)O)C(=O)NCC(=O)N[C@H](CO)C(=O)N[C@@H]([C@H](C)CC(=O)O)C(=O)N[C@@H](CC(=O)c2ccccc2N)C(=O)O[C@@H]1C — MIC (CRB, PBP4 overexpressor): 4 µg/mL
COc1ccc(CC2NCCc3cc(OC)c(OC)cc32)cc1OC.Cl (stereo not shown) — MIC (24 h, 37 °C): > 1600 µM
CCCCCCCCCCCCCCCC(=O)NS(=O)(=O)OCC — MIC (ATCC 33591 methicillin-resistant): > 200 µg/mL
CCCCCC(=O)N[C@@H](CCCNC(=N)N)C(=O)N[C@@H](CCCNC(=N)N)C(=O)N[C@@H](CCCNC(=N)N)C(=O)N[C@@H](CCCNC(=N)N)C(=O)N[C@H](C(=O)N[C@@H](CC(C)C)C(=O)N[C@H](C(=O)N[C@@H](CCCNC(=N)N)C(=O)N[C@@H](CCCNC(=N)N)C(=O)N[C@H](C(=O)N[C@@H](CC(C)C)C(=O)N[C@@H](CCCNC(=N)N)C(=O)N[C@@H](CC(C)C)C(=O)N[C@@H](CCCNC(=N)N)C(=O)N[C@@H](CO)C(=O)N[C@@H](CO)C(=O)N[C@@H](C)C(=O)N[C@@H](Cc1ccc(O)cc1)C(N)=O)C(C)C)[C@@H](C)CC)[C@@H](C)CC — MIC (broth microdilution; 24 h, 37 °C): 16 µM
